Published values pooled from the literature.
Every numbered part comes from another study and shows a few of its results, in no order.

Series 1 — technique: protein-binding microarray; molecule type: double-stranded DNA, one strand shown; sample: in vitro; concentration: not given; direction: higher = stronger binding
Target: Hepatocyte nuclear factor 3-beta, forkhead domain (FOXA2, Homo sapiens, UniProt Q9Y261, residues 142-269)
Notes: k-mer, scored over probes, only values ≥0.25
Residues (chain): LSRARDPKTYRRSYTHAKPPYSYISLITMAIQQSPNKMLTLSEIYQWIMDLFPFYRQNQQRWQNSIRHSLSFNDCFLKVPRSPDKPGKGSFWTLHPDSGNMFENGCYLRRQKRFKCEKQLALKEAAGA
With `ACTTTATG` the E-score was 0.281.
`AATACTAG` has an E-score of 0.255.
With `CTATACAA` the E-score was 0.28.
The E-score of `ATTATAAT` is reported as 0.274.
`ATTACCTA` has an E-score of 0.286.
`AATATAAT` gave an E-score of 0.278.

Series 2 — technique: protein binding microarray; molecule type: double-stranded DNA, one strand shown; sample: in vitro; concentration: not given; relative to: not given; direction: higher = stronger binding
Target: Histone acetyltransferase KAT6A, both winged helices, GST fusion (KAT6A, Homo sapiens, UniProt Q92794, residues 1-181)
Notes: 8-mer, flanks averaged, mean of 2 arrays, mostly near background
Residues (chain): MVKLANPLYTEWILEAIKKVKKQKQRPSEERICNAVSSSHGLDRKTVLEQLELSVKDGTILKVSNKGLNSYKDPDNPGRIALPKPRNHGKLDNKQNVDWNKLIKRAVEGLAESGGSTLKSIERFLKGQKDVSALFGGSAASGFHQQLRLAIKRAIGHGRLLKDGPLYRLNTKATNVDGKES
For `AGACTAAT`, the E-score was -0.131.
With `GAGTGTCA` the E-score was -0.0363.
`AAATTAGC` has an E-score of 0.0509.
`ACTAGCGA` has an E-score of -0.000675.
The E-score of `ATGCTGCC` is reported as -0.0487.
For `GGCGTCGA`, the E-score was 0.199.

Series 3 — technique: protein-binding microarray; molecule type: double-stranded DNA, one strand shown; sample: in vitro; concentration: 0.8 µM; notes: whole 60-bp probe, no competitor; direction: higher = stronger binding; all sequences stand within: … GTCTTGATTCGCTTGACGCTGCTG
Target: Centromere-binding protein 1, full length, N-terminal tag (CBF1, Saccharomyces cerevisiae, UniProt P17106, residues 1-351)
Sequence of UniProt P17106 (whole entry, looked up): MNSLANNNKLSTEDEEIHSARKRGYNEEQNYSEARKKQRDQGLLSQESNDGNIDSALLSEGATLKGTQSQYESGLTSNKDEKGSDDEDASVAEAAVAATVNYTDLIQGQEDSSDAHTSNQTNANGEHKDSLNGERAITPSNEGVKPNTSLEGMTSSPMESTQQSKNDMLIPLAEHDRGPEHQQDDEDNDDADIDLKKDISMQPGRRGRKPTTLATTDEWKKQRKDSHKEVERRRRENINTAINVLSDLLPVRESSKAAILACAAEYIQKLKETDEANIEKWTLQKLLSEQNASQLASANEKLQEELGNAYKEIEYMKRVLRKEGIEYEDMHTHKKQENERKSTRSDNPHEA
`TGTACGAAGCTATATCATGTAACTATAGTAGTTAGG` gave a fluorescence intensity of 510 a.u.
For `CTATATATGTGAGCGCACGATCGCTCCAAAAACTTC`, the fluorescence intensity was 505 a.u.
With `GAATTGCATCAACATGATGCAAAAAGTCGAAATTAG` the fluorescence intensity was 563 a.u.
For `GAATTTGTATCTTTTGACGTGATCAAAAGTAATTAG`, the fluorescence intensity was 747 a.u.
`GAAATTCCTAGTCTTTTCGTGAGTTCTTGATATTAG` gave a fluorescence intensity of 515 a.u.

Single results of other studies
`PhoQ, residues 284 288 289 292 302 303 NLALSC` gave a fold induction of 1.38 (PhoP, residues 12 14 15 18 19 LHSVW (Escherichia coli, UniProt P23836); Sort-seq, refers to: YFP reporter; E. coli; PhoQ-PhoP variant library, added: 10 µM Mg2+; relative to: high Mg2+ state, higher = stronger signaling).
